Published values collected from several papers.
Each numbered part is a random draw from the data of one study; scales do not carry over between parts.
Sequence of UniProt Q96Q40 (whole entry, looked up): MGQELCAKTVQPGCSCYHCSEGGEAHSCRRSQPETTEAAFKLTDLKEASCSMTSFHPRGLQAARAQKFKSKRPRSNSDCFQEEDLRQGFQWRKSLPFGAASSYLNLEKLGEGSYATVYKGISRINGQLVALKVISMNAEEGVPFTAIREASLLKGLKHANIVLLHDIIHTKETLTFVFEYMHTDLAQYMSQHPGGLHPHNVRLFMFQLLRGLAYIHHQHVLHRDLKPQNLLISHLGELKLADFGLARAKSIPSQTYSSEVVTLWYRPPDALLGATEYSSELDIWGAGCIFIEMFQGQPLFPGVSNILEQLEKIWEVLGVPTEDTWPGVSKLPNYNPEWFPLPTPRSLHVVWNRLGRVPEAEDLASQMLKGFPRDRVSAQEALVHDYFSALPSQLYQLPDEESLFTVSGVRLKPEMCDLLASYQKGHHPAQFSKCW
Sequence of UniProt O75116 (whole entry, looked up): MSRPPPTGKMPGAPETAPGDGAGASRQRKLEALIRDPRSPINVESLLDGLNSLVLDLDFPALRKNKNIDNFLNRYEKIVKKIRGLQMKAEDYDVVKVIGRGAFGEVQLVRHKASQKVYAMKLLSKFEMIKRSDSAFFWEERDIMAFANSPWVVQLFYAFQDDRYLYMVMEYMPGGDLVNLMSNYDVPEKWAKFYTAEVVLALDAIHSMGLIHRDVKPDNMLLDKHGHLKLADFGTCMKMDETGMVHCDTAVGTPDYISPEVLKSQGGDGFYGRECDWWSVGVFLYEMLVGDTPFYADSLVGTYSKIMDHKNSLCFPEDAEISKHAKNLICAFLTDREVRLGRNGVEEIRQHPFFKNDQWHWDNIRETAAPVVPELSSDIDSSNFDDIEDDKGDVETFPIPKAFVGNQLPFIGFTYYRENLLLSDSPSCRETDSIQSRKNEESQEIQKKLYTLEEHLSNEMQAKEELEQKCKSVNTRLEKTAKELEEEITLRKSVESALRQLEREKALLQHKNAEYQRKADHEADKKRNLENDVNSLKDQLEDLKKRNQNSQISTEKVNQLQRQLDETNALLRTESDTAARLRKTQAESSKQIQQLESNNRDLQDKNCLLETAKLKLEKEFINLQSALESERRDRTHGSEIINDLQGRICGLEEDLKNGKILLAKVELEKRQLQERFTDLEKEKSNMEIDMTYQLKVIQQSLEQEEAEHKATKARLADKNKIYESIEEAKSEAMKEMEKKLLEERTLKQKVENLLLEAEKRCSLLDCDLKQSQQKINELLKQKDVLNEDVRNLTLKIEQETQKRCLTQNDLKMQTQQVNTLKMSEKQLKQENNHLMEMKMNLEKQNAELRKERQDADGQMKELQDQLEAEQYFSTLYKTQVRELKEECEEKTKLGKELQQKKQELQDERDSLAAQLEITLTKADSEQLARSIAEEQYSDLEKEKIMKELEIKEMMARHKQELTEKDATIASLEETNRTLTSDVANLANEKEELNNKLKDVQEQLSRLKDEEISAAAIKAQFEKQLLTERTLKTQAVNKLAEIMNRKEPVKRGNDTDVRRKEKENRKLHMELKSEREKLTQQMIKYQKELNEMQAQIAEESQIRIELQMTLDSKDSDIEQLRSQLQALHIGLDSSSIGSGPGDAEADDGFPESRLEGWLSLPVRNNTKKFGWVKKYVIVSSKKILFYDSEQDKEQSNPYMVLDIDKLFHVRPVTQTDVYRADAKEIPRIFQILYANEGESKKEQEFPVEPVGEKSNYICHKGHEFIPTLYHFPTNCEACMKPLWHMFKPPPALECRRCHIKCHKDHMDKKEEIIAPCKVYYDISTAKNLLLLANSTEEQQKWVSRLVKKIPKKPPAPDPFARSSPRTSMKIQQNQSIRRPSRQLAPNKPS
Sequence of UniProt Q15303 (whole entry, looked up): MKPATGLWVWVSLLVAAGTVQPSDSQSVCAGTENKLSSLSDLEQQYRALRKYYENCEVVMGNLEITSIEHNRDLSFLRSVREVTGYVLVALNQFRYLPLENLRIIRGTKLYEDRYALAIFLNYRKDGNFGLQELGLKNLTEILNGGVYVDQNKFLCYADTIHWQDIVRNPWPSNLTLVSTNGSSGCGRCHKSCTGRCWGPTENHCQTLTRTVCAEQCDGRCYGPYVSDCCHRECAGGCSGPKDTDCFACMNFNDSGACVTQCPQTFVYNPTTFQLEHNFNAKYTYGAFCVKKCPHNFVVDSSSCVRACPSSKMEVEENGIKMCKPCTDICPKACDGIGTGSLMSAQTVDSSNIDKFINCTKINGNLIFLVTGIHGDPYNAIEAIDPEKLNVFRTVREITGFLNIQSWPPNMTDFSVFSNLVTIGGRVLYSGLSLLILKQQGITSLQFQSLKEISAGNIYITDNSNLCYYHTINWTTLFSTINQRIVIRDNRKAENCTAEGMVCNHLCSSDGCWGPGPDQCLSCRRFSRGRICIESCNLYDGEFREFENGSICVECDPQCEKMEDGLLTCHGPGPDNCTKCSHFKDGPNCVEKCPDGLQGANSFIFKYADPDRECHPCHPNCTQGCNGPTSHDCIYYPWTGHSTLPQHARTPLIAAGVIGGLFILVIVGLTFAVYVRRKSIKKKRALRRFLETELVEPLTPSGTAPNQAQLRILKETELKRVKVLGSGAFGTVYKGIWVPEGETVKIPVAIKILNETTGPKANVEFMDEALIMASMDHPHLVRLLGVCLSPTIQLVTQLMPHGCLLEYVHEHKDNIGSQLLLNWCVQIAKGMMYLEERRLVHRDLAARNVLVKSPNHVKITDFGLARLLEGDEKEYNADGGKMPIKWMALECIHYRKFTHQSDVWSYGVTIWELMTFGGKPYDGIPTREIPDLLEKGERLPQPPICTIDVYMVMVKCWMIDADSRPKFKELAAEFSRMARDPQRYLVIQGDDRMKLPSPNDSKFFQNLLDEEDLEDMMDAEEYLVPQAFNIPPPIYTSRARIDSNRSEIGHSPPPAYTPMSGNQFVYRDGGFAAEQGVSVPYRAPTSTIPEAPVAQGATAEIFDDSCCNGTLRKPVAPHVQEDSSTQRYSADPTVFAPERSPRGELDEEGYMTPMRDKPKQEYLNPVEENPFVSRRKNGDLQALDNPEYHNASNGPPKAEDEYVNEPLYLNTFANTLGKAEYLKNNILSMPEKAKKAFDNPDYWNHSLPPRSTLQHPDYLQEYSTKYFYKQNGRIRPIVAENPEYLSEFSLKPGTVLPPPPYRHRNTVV

Series 1 — effect on: enzyme activity; action: inhibitor; tested at: 10 µM; endpoint: inhibition
Target: Calcium/calmodulin-dependent protein kinase type II subunit alpha (CAMK2A, Homo sapiens, UniProt Q9UQM7)
Sequence of UniProt Q9UQM7 (whole entry, looked up): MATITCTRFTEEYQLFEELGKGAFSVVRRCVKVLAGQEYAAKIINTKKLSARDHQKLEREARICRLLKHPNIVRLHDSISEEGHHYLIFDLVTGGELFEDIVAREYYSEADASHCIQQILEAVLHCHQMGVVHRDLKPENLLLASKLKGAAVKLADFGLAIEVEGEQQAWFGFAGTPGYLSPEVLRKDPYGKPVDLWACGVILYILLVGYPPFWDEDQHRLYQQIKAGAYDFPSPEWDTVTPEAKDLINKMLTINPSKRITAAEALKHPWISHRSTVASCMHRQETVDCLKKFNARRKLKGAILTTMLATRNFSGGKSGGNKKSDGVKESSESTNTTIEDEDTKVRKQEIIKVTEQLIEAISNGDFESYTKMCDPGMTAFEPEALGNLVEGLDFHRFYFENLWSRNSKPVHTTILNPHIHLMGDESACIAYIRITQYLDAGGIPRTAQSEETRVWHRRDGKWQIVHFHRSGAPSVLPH
NC(=O)c1ccc[n+]([C@@H]2O[C@H](CO)[C@@H](O)[C@H]2O)c1: -17%
O=c1c2c3c(ccc2cc2n1CCc1cc4c(cc1-2)OCO4)OCO3: -20%
CN(c1nccc(=O)[nH]1)C1CCN(c2nc3ccccc3n2Cc2ccc(F)cc2)CC1: -7%
CC(=O)CO: -14%
CC(=O)c1ccc2c(c1)C=CC(C)(C)O2: -21%
CCC(=O)OCC(=O)[C@@]1(OC(=O)CC)[C@@H](C)C[C@H]2[C@@H]3CCC4=CC(=O)C=C[C@]4(C)[C@@]3(Cl)[C@@H](O)C[C@@]21C: 3%
Cc1cc(O[C@@H]2O[C@H](CO)[C@@H](O)[C@H](O)[C@H]2O)c2c(c1)C(=O)c1cccc(O)c1C2=O: -44%
COC(=O)c1ccc(OC)c(O)c1: 27%

Series 2 — organism: Sarcocystis neurona; effect on: parasite growth; tested at: 10 µM; time: 96 h; setting: first screen; relative to: untreated; endpoint: log2 fold change
C[C@@H]1C[C@H]2[C@@H]3CCC4=CC(=O)C=C[C@]4(C)[C@@]3(F)[C@@H](O)C[C@]2(C)[C@H]1C(=O)CO: -0.17
CN(C)CCOc1ccc(/C(=C(/CCCl)c2ccccc2)c2ccccc2)cc1: -0.0157
CC(C)c1ccc2oc3nc(N)c(C(=O)O)cc3c(=O)c2c1: 2.02
CN(C)c1nc(N(C)C)nc(N(C)C)n1: 0.29
COC1=C(OC)C(=O)C(CCCCCCCCCCO)=C(C)C1=O: 0.37
CCC(=O)O[C@]1(C(=O)SCF)[C@H](C)C[C@H]2[C@@H]3C[C@H](F)C4=CC(=O)C=C[C@]4(C)[C@@]3(F)[C@@H](O)C[C@@]21C: -0.52
CC(C)(C)NC[C@H](O)COc1nsnc1N1CCOCC1: 0.28
O=C(O)COCCN1CCN(C(c2ccccc2)c2ccc(Cl)cc2)CC1 (centres unmarked): -0.96

Series 3 — method: competition with immobilised ligand; tested at: 1 µM; endpoint: remaining binding
Structure (SMILES): NS(=O)(=O)c1cc(NC(=O)Cc2ccccc2)ccc1Oc1cccc(Cl)c1
Phosphatidylinositol 3-kinase catalytic subunit type 3 (PIK3C3, Homo sapiens, UniProt Q8NEB9); cell-free assay: 100%
Cyclin-dependent kinase 4, with cyclin D3 (CDK4, Homo sapiens, UniProt P11802); cell-free assay: 71%
Receptor-type tyrosine-protein kinase FLT3 (FLT3, Homo sapiens, UniProt P36888, ITD); cell-free assay: 79%
Ribosomal protein S6 kinase alpha-3, C-terminal kinase domain (RPS6KA3, Homo sapiens, UniProt P51812); cell-free assay: 98%
STE20/SPS1-related proline-alanine-rich protein kinase (STK39, Homo sapiens, UniProt Q9UEW8); cell-free assay: 86%
Calcium/calmodulin-dependent protein kinase type II subunit beta (CAMK2B, Homo sapiens, UniProt Q13554); cell-free assay: 100%
Aurora kinase B (AURKB, Homo sapiens, UniProt Q96GD4); cell-free assay: 58%
Epidermal growth factor receptor (EGFR, Homo sapiens, UniProt P00533, A750P/del747-749); cell-free assay: 86%
Cyclin-G-associated kinase (GAK, Homo sapiens, UniProt O14976); cell-free assay: 99%
Cyclin-dependent kinase 11A (CDK11A, Homo sapiens, UniProt Q9UQ88); binding: 95%
Receptor tyrosine-protein kinase erbB-4 (ERBB4, Homo sapiens, UniProt Q15303); cell-free assay: 56%
Mast/stem cell growth factor receptor Kit (KIT, Homo sapiens, UniProt P10721, D816H); cell-free assay: 76%
Serine/threonine-protein kinase Nek6 (NEK6, Homo sapiens, UniProt Q9HC98); cell-free assay: 98%
Tyrosine-protein kinase Fer (FER, Homo sapiens, UniProt P16591); cell-free assay: 73%
Vascular endothelial growth factor receptor 2 (KDR, Homo sapiens, UniProt P35968); cell-free assay: 77%
Rho-associated protein kinase 2 (ROCK2, Homo sapiens, UniProt O75116); cell-free assay: 98%
Cyclin-dependent kinase 15 (CDK15, Homo sapiens, UniProt Q96Q40); cell-free assay: 88%

Series 4 — effect on: enzyme activity; action: inhibitor; tested at: 0.5 µM; relative to: control; endpoint: remaining activity
Target: MAP kinase-interacting serine/threonine-protein kinase 1 (MKNK1, Homo sapiens, UniProt Q9BUB5)
Sequence of UniProt Q9BUB5 (whole entry, looked up): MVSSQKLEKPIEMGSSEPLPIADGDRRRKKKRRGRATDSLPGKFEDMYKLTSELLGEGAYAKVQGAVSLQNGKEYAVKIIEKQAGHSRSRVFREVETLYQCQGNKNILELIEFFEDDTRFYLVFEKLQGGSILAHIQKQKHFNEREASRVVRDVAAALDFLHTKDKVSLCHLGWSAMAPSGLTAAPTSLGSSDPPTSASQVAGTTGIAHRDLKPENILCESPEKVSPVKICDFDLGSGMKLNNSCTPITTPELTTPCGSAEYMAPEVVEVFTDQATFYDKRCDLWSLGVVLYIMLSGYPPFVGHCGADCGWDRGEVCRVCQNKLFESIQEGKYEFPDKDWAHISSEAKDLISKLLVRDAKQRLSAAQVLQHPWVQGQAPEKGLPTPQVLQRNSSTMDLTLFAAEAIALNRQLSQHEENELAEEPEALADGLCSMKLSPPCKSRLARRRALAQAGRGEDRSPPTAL
CCCCc1c(-c2ccc(OC)cc2)[nH]c2nccnc12: 97.7%
O=C1Nc2ccc(Br)cc2/C1=C/c1cc2c([nH]1)CCCC2: 106%
COc1ccc(COc2ccc(Cc3cnc(N)nc3N)cc2OC)cc1: 113%
CN1CCN(c2ccc3nc(-c4c(N)c5c(F)cccc5[nH]c4=O)[nH]c3c2)CC1: 88.7%
COc1ccc2c(c1)c(C1=C(c3c[nH]c4ccccc34)C(=O)NC1=O)cn2CCCN(C)C: 92.8%
N#Cc1cnc2cnc(NCc3cccnc3)cc2c1Nc1ccc(F)c(Cl)c1: 73.2%
Oc1cccc(-c2nc(N3CCOCC3)c3oc4ncccc4c3n2)c1: 102%
O=C1Nc2ccccc2/C1=C\c1c(Cl)[nH]c2ccccc12: 105%
CCCNC(=O)Nc1ccc(Oc2ncnc3cc(OC)c(OC)cc23)cc1Cl: 95.2%
O=C1NC(=O)c2c1c1c3ccccc3[nH]c1c1[nH]c3cc(Br)ccc3c21: 81.5%
COc1cccc(-c2cc(=O)c3ccccc3o2)c1N: 95.4%

Some of these lines once more (series 3):
Cyclin-dependent kinase 11A (CDK11A, Homo sapiens, UniProt Q9UQ88); binding: 95%
Cyclin-G-associated kinase (GAK, Homo sapiens, UniProt O14976); cell-free assay: 99%
Cyclin-dependent kinase 15 (CDK15, Homo sapiens, UniProt Q96Q40); cell-free assay: 88%
Ribosomal protein S6 kinase alpha-3, C-terminal kinase domain (RPS6KA3, Homo sapiens, UniProt P51812); cell-free assay: 98%
Aurora kinase B (AURKB, Homo sapiens, UniProt Q96GD4); cell-free assay: 58%
Tyrosine-protein kinase Fer (FER, Homo sapiens, UniProt P16591); cell-free assay: 73%
